Assay results pooled from the literature.
rep main protease: Replicase polyprotein 1ab, main protease (rep, Severe acute respiratory syndrome coronavirus 2, UniProt P0DTD1)
Spike glycoprotein: Spike glycoprotein (Severe acute respiratory syndrome coronavirus 2, UniProt P0DTC2)
Chain of UniProt Q8JUX6 (whole entry, looked up): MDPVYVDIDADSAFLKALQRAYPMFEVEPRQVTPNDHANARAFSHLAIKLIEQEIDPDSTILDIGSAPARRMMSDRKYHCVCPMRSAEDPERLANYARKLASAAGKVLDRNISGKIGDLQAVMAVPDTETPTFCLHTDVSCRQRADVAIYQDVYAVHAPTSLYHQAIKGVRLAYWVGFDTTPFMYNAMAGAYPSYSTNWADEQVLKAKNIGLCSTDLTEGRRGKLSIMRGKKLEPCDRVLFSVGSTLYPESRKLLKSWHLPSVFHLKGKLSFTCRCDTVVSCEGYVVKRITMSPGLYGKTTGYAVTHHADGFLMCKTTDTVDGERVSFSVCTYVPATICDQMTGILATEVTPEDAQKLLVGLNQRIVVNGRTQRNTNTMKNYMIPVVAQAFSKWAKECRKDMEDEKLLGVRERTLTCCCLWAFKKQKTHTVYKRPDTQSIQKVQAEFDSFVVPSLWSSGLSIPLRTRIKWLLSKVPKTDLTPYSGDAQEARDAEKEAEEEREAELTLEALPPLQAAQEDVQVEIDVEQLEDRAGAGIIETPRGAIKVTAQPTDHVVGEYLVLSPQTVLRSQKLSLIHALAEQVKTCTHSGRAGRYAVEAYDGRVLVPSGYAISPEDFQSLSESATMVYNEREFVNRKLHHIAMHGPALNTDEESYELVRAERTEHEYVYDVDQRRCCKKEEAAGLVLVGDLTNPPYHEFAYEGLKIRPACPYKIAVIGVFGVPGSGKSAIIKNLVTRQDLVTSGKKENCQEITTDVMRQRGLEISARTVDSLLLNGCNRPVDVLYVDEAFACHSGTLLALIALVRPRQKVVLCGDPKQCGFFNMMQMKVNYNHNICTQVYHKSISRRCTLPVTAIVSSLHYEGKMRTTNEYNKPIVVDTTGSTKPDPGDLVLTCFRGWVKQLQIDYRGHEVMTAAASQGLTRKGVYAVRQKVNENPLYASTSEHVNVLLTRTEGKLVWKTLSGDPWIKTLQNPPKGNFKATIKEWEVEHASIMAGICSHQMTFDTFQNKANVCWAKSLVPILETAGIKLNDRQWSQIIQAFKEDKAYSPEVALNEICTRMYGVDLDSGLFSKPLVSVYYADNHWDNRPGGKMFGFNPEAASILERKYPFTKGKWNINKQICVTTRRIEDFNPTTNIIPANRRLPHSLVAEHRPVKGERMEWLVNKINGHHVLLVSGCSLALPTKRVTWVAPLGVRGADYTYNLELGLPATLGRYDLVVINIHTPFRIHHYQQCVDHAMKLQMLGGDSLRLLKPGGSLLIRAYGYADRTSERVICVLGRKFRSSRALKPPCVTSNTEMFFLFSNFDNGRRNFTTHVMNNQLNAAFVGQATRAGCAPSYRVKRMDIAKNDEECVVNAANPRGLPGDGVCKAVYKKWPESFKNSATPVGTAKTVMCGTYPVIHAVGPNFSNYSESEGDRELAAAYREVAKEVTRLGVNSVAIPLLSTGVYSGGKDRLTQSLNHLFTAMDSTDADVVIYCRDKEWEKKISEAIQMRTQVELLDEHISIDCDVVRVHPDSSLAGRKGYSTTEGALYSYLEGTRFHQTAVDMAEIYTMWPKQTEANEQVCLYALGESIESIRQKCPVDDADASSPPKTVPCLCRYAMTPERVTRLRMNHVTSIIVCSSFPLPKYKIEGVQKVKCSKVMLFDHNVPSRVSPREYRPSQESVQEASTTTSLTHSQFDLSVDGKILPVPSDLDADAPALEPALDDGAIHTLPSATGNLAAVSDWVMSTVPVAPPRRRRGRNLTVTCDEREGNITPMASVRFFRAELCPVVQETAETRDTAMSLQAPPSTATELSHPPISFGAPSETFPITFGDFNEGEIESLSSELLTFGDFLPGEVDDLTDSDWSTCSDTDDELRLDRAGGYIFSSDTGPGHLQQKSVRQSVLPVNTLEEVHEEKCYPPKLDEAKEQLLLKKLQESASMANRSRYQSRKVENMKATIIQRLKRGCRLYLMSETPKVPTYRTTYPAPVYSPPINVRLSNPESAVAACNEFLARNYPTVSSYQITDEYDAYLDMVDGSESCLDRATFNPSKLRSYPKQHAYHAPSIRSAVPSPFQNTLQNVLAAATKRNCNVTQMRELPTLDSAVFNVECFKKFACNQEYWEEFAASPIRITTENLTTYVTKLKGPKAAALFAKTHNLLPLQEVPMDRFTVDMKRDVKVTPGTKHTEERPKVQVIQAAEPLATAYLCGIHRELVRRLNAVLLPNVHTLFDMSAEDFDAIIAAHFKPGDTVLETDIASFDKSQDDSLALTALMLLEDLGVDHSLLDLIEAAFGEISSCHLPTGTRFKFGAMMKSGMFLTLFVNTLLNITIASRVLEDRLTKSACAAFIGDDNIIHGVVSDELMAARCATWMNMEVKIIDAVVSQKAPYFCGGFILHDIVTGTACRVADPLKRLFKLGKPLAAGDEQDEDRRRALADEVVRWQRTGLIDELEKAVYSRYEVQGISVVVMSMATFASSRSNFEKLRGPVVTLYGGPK

| SMILES | target or system | assay | test system | conditions | scale | measurement | value |
| --- | --- | --- | --- | --- | --- | --- | --- |
| CN1CCCC2(C1)CN(Cc1cccnc1)c1ccc(C(=O)NCC3CCCCC3)cc12 (stereo not shown) | SARS-CoV-2 | cytopathic effect, cell-based CPE | USA_WA1/2020 | round 2, 5-point dilution | – | AC50 | 14.1 µM |
| CNC(=O)[C@@H](NC(=O)[C@H](CC(C)C)[C@H](O)C(=O)NO)C(C)(C)C | Daboia russelii venom proteases (SVMP) | protease activity, inhibitor | MH population | 1 µM, with: azocasein substrate | reference: venom alone | remaining activity | 0% |
| COc1cc2c(cc1OC)-c1c(C)c3ccc(OC)c(OC)c3c[n+]1CC2.O=[N+]([O-])[O-] | rep main protease | reporter gene (Gaussia luciferase), inhibitor | – | 20 µM | – | inhibition | -0.0235% |
| O=C(NCC[C@H]1CCCN(C(=O)c2ccc(-c3cnc[nH]3)cc2)C1)c1ccc2n[nH]c(=O)n2c1 | rep main protease | enzyme activity, inhibitor | – | 5 µM, run 1 | – | inhibition | 12.4% |
| O=c1oc(Cl)c(Cl)c2ccccc12 | rep main protease | reporter gene (mKate2), inhibitor | – | 20 µM | – | inhibition | 0.169% |
| Cn1cnc(Cn2c(=O)[nH]/c(=N\c3cc4cn(C)nc4cc3Cl)n(Cc3cc(F)c(F)cc3F)c2=O)n1 | – | – | human, severe renal impairment | oral, 375 mg, hypertriglyceridaemia TEAE, Severe severity | – | patients with adverse event | 0% |
| O=C(NCCC[C@@H](NC(=O)c1cccc2cc(=O)[nH]cc12)c1ccccc1)c1cn[nH]c(=O)c1 | rep main protease | enzyme activity, inhibitor | – | 5 µM, run 2 | – | inhibition | 15.9% |
| O=C(O)[C@H]1O[C@@H](Oc2cc(O)c3c(=O)cc(-c4ccc(O)c(O)c4)oc3c2)[C@H](O)[C@@H](O)[C@@H]1O | Spike glycoprotein | binding, biolayer interferometry | – | – | – | koff | 0.0128 s⁻¹ |
| CC[C@H](C)[C@H](NC(=O)[C@H](CC(N)=O)NC(=O)[C@H](CCC(=O)O)NC(=O)[C@H](C)NC(=O)[C@H](Cc1c[nH]cn1)NC(=O)[C@@H](NC(=O)[C@@H]1CCCN1C(=O)[C@H](CO)NC(=O)[C@@H]1CCCN1C(=O)[C@@H](NC(=O)[C@H](Cc1ccc(O)cc1)NC(=O)[C@@H](NC(=O)[C@H](CCCNC(=N)N)NC(=O)[C@H](CO)NC(=O)[C@@H](NC(=O)[C@H](Cc1c[nH]cn1)NC(C)=O)[C@@H](C)O)[C@@H](C)CC)[C@@H](C)CC)[C@@H](C)CC)C(N)=O | Polyprotein P1234, nsP2 protease domain (Chikungunya virus, UniProt Q8JUX6) | binding, phage display | – | – | direction not given | enrichment score | 38 |
| CC[C@H](C)[C@H](NC(=O)[C@H](CC(C)C)NC(=O)[C@H](Cc1c[nH]c2ccccc12)NC(=O)[C@H](CCC(N)=O)NC(=O)[C@@H](NC(=O)[C@H](Cc1ccccc1)NC(=O)[C@H](C)NC(=O)[C@H](CCCCNC(=O)COCCOCCNC(=O)COCCOCCNC(=O)CC[C@H](NC(=O)CCCCCCCCCCCCCCCCCCC(=O)O)C(=O)O)NC(=O)[C@H](CCC(N)=O)NC(=O)[C@H](C)NC(=O)[C@@H](NC(=O)[C@H](CCCCN)NC(=O)[C@H](CC(=O)O)NC(=O)[C@H](CC(C)C)NC(=O)C(C)(C)NC(=O)[C@@H](NC(=O)[C@H](CO)NC(=O)[C@H](Cc1ccc(O)cc1)NC(=O)[C@H](CC(=O)O)NC(=O)[C@H](CO)NC(=O)[C@@H](NC(=O)[C@H](Cc1ccccc1)NC(=O)[C@@H](NC(=O)CNC(=O)[C@H](CCC(=O)O)NC(=O)C(C)(C)NC(=O)[C@@H](N)Cc1ccc(O)cc1)[C@@H](C)O)[C@@H](C)O)[C@@H](C)CC)[C@@H](C)CC)C(C)C)C(=O)N[C@@H](C)C(=O)NCC(=O)NCC(=O)N1CCC[C@H]1C(=O)N[C@@H](CO)C(=O)N[C@@H](CO)C(=O)NCC(=O)N[C@@H](C)C(=O)N1CCC[C@H]1C(=O)N1CCC[C@H]1C(=O)N1CCC[C@H]1C(=O)N[C@@H](CO)C(N)=O | – | – | healthy subjects | all MAD doses | – | subjects with any TEAE | 85.7% |
| CC(C)=CCC[C@]1(C)C=Cc2c(O)c3c(c(CC=C(C)C)c2O1)O[C@]12C(=C[C@@H]4C[C@H]1C(C)(C)O[C@@]2(C/C=C(/C)C(=O)O)C4=O)C3=O | Spike glycoprotein | binding, BLI | – | – | – | koff | 0.00448 s⁻¹ |
| O=C(N[C@@H](CNC(=O)[C@@H]1CCCc2[nH]cnc21)c1ccc2ccccc2c1)c1cncc(F)c1 | rep main protease | enzyme activity, inhibitor | – | 5 µM, run 1 | – | inhibition | 13.1% |
| Nc1ncnc2c([C@@H]3N[C@H](CO)[C@@H](O)[C@H]3O)c[nH]c12 | Severe acute respiratory syndrome coronavirus | viral replication, inhibitor | Vero 76 | 94.7 µM | – | inhibition | 93.4% |
| N=C(N)c1ccc2cc(OC(=O)c3ccc(N=C(N)N)cc3)ccc2c1 | rep main protease | reporter gene (mKate2), inhibitor | – | 20 µM | – | inhibition | 0.493% |
| O=c1cc(-c2ccccc2)c2ccc(O)c(O)c2o1 | Spike glycoprotein | binding, biolayer interferometry | – | – | – | koff | 0.0851 s⁻¹ |
| NC(=O)NC[C@H](N)C(=O)O | rep main protease | reporter gene (mKate2), inhibitor | – | 20 µM | – | inhibition | 0.0331% |
| O=C(Cn1c(O)ccc1O)N[C@@H]1CCCCC12CCN(C(=O)c1cncc3[nH]cnc13)CC2 | rep main protease | enzyme activity, inhibitor | – | 5 µM, mean of runs | – | inhibition | 10.6% |
| CC(C)C(=O)OC[C@H]1O[C@@H](n2ccc(NO)nc2=O)[C@H](O)[C@@H]1O | – | – | rat plasma | 100 µM, 1 h, with: loperamide 100 µM | – | remaining compound | 0% |
| C[C@@H]1Cc2c(Cl)cc(C(=O)N[C@@H](Cc3ccccc3)C(=O)O)c(O)c2C(=O)O1 | Aspergillus niger lipase A | substrate | – | pH 7.5, 37 °C | – | Km | 500 µM |
